# Published values pooled from the literature.
# Each numbered part is a random draw from the data of one study; scales do not carry over between parts.

# Sample 1
# Target: Fragile X messenger ribonucleoprotein 1, C-terminal low-complexity region (Fmr1, Mus musculus, UniProt P35922)
# Method: RNA Bind-n-Seq
# Molecule type: RNA
# Matrix: in vitro
# Tested at: 200 nM
# Notes: whole 134-nt RNA, ends assumed
# Added: 150 mM LiCl
# Relative to: input library
# Direction: higher = stronger binding
# Each molecule: 7-deaza-guanosine replaces G
Strand,log2 enrichment
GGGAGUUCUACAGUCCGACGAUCCAAGUCCUGUGCUACACAUCGUAUGUACCGAAUCGGGAGGGUUUUUGGGAAAGGGAAAGUAUUAUGUUACGCCGUUCGGAUCUGCACUUCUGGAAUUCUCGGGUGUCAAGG,-0.361
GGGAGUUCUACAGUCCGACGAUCUGGGAGGUGGAUUUUGUUUAUUUUUUUAGCUCAUUUCCAGGGGUGGGAAUUUUUUUUGAAUAUGUGUCAUGAAUAAAGUUGUUUUUGAAAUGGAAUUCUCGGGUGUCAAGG,-0.291
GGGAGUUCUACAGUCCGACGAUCUCAUGUGGAUGAAGCAGAAAAAGAAGCUCAGAAGAAGCCAGCUGAAUCUCAAAAAAUAGAGCGUGAAGAUGCCCUGGCUUUUAAUUCAGCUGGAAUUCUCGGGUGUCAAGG,-2.91
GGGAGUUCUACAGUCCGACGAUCGCAGGAAAUAAAAACAAAUGGAAAUGCUUCGGAUAGUGGCAGGGGUGGGGGUUGCUAAGGAAAGGGUGGGAUGGGAGUGGGUAAAGAGUUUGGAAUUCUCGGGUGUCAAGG,1.66
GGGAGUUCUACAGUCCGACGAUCUCAAGUCCUGUGCUACACAUCGUAUGUACCGAAUCGGUUUUUGGUUUUUGGAGGAAAGUAUUAUGUUACGCCGUUCGGAUCUGCACUUCCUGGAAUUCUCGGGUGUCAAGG,-0.31

# Sample 2
# Target: RNA binding protein fox-1 homolog 2, RRM domain, GST-SBP tag (RBFOX2, Homo sapiens, UniProt O43251-10, residues 100-194)
# Method: RNA Bind-n-Seq
# Molecule type: RNA
# Matrix: in vitro
# Tested at: 365 nM
# Notes: natural RNA segment, single round, ends assumed
# Relative to: no-protein control
# Direction: higher = stronger binding
# Residues (chain): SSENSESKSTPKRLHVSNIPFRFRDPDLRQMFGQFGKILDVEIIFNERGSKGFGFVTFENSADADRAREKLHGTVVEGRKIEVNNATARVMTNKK
Strand,RBNS enrichment (R)
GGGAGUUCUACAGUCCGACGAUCCAAGUCCCUUCCACCUAUGAGCCUGUAAAAUCAAAAGCAAGCUAGUUACUUCCUAGAUACCAACAGGGGUACAGGUAUUGAUUAAAGACGGCUGUUCCAAAUGGGAGAAAUGGAAUUCUCGGGUGCCAA,0.442
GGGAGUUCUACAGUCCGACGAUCCUGGGAAUCAGGCCGCCGAGGGCUGAGCUCCAGAGCCGCACCAUCUGCCACAAACAGAAUUCGAGACAUACUUAAUUUUGAAUUUCUCCUUGCCACGUUAAUAAAGCCAAUGGAAUUCUCGGGUGCCAA,0.358
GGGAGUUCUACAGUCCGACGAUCACAGGCCUCUGGAGCCAGGCGACUUCUUGGGAAACUGUCAUCUCCCGACUCCUCCCUGAGCCAGCCUCCGCUCAGUGUGGCUCCUCAGCCCACAGAGGGGAGGGAGCAUGUGGAAUUCUCGGGUGCCAA,2.59
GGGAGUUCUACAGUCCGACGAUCAAGCAGAAUAAUGGAAUAUAAUAUGUCUUCAUAAUAUAACAACACUAAUACACUAAUAGUAAGAUUAAGUUAGGCAGUCUUCUACCAAAUGUGUAAUGGAGAUUGCCUCAUGGAAUUCUCGGGUGCCAA,0.226
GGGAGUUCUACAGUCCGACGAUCCACUCUGGCCACAGGUGACACUUGGUCCUUGCUGCCACCUGCUUGGGGCUAUGUGGCUACGGCUACACAAAAGCCUGUGCAGGUUAGAAGACGACUGUGGUGUGCAGUGGUGGAAUUCUCGGGUGCCAA,0.405
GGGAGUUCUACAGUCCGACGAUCAGCAACUUUGCUCUCCCUGCCGUGCCUCGGUGGUGCUCCUGAAUGUGGCUGACCUGGGCUGCUGGUUCCGUUGACUAGGGUCAUCUUGAUCUCUGCAGUUUGCUCCAGCUUGGAAUUCUCGGGUGCCAA,0.411

# Sample 3
# Target: Sal-like protein 4, full length isoform B (SALL4, Homo sapiens, UniProt Q9UJQ4-2, residues 1-616)
# Method: universal PBM
# Molecule type: double-stranded DNA, one strand shown
# Matrix: in vitro
# Tested at: not given
# Notes: 8-mer, flanks averaged, mean of replicates
# Direction: higher = stronger binding
Strand,E-score
CGATACCA,0.0878
CTGAGTAC,-0.168
GTCCATCA,0.0055
ACCATCTG,-0.227
CGCGGAGC,-0.33

# Mixed results
Molecule,target,test,system,conditions,how to read,quantity,result
"PhoQ, residues 284 288 289 292 302 303 GTAMQF","PhoP, residues 12 14 15 18 19 NHFIF (Escherichia coli, UniProt P23836)","Sort-seq, refers to: YFP reporter",E. coli,"PhoQ-PhoP variant library, added: 10 µM Mg2+","relative to: high Mg2+ state, higher = stronger signaling",fold induction,18.8

# A few entries again (mixed results):
Molecule,target,test,system,conditions,how to read,quantity,result
"PhoQ, residues 284 288 289 292 302 303 GTAMQF","PhoP, residues 12 14 15 18 19 NHFIF (Escherichia coli, UniProt P23836)","Sort-seq, refers to: YFP reporter",E. coli,"PhoQ-PhoP variant library, added: 10 µM Mg2+","relative to: high Mg2+ state, higher = stronger signaling",fold induction,18.8
